Measurements from different studies.
Each numbered part is a random draw from the data of one study; scales do not carry over between parts. Changes are numbered by the printed parent chain.
Sequence of UniProt P31751 (whole entry, looked up): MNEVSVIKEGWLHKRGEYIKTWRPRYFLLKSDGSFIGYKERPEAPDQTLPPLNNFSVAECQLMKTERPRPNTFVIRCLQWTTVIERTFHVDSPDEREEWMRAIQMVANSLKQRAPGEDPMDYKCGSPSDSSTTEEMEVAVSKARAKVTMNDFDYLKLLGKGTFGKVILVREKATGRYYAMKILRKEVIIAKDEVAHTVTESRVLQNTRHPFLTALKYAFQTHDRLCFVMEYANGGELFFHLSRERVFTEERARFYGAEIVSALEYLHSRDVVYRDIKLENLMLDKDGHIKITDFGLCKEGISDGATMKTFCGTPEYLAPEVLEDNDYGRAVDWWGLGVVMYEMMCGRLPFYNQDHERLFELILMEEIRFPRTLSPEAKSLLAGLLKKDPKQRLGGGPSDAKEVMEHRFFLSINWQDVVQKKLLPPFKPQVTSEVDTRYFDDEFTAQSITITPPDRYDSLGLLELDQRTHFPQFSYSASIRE
Sequence of UniProt P42681 (whole entry, looked up): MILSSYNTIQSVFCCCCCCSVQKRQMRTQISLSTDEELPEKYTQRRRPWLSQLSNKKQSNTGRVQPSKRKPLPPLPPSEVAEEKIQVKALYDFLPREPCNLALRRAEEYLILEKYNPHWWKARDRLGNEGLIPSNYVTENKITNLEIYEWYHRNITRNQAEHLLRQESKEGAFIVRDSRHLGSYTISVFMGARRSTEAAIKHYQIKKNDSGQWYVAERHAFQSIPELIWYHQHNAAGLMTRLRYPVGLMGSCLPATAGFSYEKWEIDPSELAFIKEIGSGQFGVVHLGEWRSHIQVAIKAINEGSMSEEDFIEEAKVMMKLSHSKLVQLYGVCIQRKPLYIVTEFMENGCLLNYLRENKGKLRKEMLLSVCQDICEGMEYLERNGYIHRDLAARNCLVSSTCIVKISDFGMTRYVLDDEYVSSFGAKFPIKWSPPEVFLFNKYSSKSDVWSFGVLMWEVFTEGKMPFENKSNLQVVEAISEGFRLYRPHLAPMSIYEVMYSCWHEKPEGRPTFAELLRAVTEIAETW
Sequence of UniProt Q9UQB9 (whole entry, looked up): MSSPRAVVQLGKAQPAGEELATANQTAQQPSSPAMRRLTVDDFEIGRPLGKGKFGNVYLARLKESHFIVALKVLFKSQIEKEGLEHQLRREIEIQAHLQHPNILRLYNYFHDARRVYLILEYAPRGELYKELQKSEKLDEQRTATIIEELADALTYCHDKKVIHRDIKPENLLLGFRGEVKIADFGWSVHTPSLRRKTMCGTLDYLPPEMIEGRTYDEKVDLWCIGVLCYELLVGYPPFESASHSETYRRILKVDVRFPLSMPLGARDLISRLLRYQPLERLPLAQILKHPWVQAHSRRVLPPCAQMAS

Sample 1
Target: Death-associated protein kinase 3 (DAPK3, Homo sapiens, UniProt O43293)
Sequence of UniProt O43293 (whole entry, looked up): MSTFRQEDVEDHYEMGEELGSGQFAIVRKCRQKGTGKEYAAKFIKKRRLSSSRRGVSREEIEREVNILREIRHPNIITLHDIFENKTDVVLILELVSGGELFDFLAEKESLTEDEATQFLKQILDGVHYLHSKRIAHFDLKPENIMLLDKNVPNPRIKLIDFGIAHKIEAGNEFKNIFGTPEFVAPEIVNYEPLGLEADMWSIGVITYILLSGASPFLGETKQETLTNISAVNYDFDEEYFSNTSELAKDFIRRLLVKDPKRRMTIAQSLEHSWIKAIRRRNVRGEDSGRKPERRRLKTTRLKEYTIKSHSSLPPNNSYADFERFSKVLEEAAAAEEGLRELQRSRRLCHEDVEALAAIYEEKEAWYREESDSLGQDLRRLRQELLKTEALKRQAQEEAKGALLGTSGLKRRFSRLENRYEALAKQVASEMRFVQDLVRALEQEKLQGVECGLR
Observed: enzyme activity
Action: inhibitor
Tested at: 0.5 µM
Baseline: control
Compound | remaining activity [%]
N#C/C(=C\c1ccc(O)c(O)c1)C(=O)NCc1ccccc1 | 86.5
Cc1cc2ncc(-c3ccccc3)nc2cc1C | 90.3
Ic1cccc(CSc2nnc(-c3ccncc3)o2)c1 | 107

Sample 2
SMILES: N#Cc1ccc(Nc2ccc3[nH]c(=O)[nH]c3c2)c(Cl)c1
Method: competition with immobilised ligand
Tested at: 1 µM
target | observed | remaining binding
AKT2 (Homo sapiens, UniProt P31751) | cell-free assay | 89%
TXK (Homo sapiens, UniProt P42681) | binding | 87%
Aurora kinase C (AURKC, Homo sapiens, UniProt Q9UQB9) | cell-free assay | 100%

Sample 3
Substitution: L166V
Target: ABI1, truncated, D143A, DHFR fusion (Arabidopsis thaliana)
Method: DHFR PCA, deep sequencing
Sample: yeast
Setting: methotrexate growth selection, single substitutions
Baseline: wild-type fitted maximum
Reading: higher = stronger binding
Starting sequence: PYL1, truncated, DHFR fusion (Arabidopsis thaliana); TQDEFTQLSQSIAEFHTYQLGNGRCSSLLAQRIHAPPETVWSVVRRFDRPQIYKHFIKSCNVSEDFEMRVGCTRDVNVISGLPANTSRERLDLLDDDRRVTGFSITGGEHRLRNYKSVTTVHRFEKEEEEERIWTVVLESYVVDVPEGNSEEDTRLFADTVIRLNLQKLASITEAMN; partner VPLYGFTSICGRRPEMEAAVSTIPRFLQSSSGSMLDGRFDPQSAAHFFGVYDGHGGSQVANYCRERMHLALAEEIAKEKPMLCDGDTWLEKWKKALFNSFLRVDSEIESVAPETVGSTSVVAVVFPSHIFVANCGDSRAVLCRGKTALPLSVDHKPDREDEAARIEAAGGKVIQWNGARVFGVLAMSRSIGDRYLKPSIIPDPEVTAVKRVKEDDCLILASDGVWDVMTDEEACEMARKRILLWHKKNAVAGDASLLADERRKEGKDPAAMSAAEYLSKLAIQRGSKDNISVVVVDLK
together with | relative binding score
(+)-ABA 58 µM | 9.48%
(+)-ABA 0.032 µM | 5.56%
(+)-ABA 2500 µM | 54.2%
(+)-ABA 0.0091 µM | 0.696%
(+)-ABA 200 µM | 9.72%
(+)-ABA 0 µM | 3.83%

Other studies, line by line
Compound | test | system | setting | how to read | measurement | value
CC(C)n1cnc(-c2ccc(F)cc2)c1-c1ncc(C(=O)Nc2ccc(N3CCN(C)CC3)cc2)[nH]1 | Olink proteomics, refers to: A1BG | idiopathic pulmonary fibrosis patients, serum | 30 mg twice daily, week 12 | baseline: baseline | serum protein level change | 0.122 NPX

Some of these lines once more (sample 1):
Compound | remaining activity [%]
Cc1cc2ncc(-c3ccccc3)nc2cc1C | 90.3
